Results pooled from the literature.
Lines come from different studies, so protocols differ. ± marks the error that the study gave.

| Structure (SMILES) | cell line | test | test system | conditions | how to read | quantity | value |
| --- | --- | --- | --- | --- | --- | --- | --- |
| O=C(Nc1ccc(C(F)(F)F)cc1Cl)c1cc(Cl)ccc1O | C4-2B MDVR cells | ELISA |  | 0.5 and 1.0 µM |  | cell death | increased |
| CCCCCCCCCCCCCC(=O)NCC(=O)N[C@@H](CCCNC(=N)N)C(=O)N[C@@H](Cc1c[nH]c2ccccc12)C(=O)N[C@@H](CCCCN)C(=O)N[C@H](C(=O)N[C@@H](Cc1ccccc1)C(=O)N[C@@H](CCCCN)C(=O)N[C@@H](CCCCN)C(=O)N[C@H](C(=O)N[C@@H](CCC(=O)O)C(=O)N[C@@H](CCCCN)C(=O)N[C@H](C(=O)NCC(=O)N[C@@H](CCC(N)=O)C(=O)N[C@@H](CC(N)=O)C(=O)N[C@H](C(=O)N[C@@H](CCCNC(=N)N)C(=O)N[C@@H](CC(=O)O)C(=O)NCC(=O)N[C@H](C(=O)N[C@H](C(=O)N[C@@H](CCCCN)C(=O)N[C@@H](C)C(=O)NCC(=O)N1CCC[C@H]1C(=O)N[C@@H](C)C(=O)N[C@H](C(=O)N[C@@H](C)C(=O)N[C@H](C(=O)N[C@H](C(=O)NCC(=O)N[C@@H](CCC(N)=O)C(=O)N[C@@H](C)C(=O)N[C@@H](C)C(=O)N[C@H](C(=O)N[C@H](C(N)=O)[C@@H](C)CC)[C@@H](C)O)C(C)C)C(C)C)C(C)C)C(C)C)[C@@H](C)CC)[C@@H](C)CC)C(C)C)[C@@H](C)CC)[C@@H](C)CC | K562/MDR |  |  | 3 µM, 16 h |  | LDH release | ~20% |
| CCOC(=O)[C@H]1O[C@@H]1C(=O)N(CC(C)C)NC(=O)[C@H](C)NC(=O)[C@H](CCC(=O)O)NC(=O)OCc1ccccc1 | HFF | inhibitor |  | concentration not given, together with: Vibrio cholerae supernatant, MARTX toxin |  | actin crosslinking | inhibited |
| CC(C)CC(O)(CC(C)C)c1cn(C(=O)N2CCCC2)nn1 | mouse T-cells | N-terminal labelling enrichment, measured: S100A6 N-terminal peptides |  | 1 nM, 6 h, protein median | relative to: DMSO | SILAC ratio | 3.93 ± 0.33 |
| CC1OC2OC3C4=C(OC3(C)C12O)C(=O)c1c(O)cccc1C4=O (stereo not drawn) | HeLa and HFF | MTT |  |  | relative to: CC50 HFF over EC50 HeLa | selectivity index | 2.62 |
| CC12CCC3(CCC(=O)NCCNc4ccnc5cc(Cl)ccc45)C(C)(OOC3(C)O1)O2 | MOLT-4 | cell growth or viability, resazurin |  | 10 µM, 48 h |  | inhibition | 12.7% |
| F[P-](F)(F)(F)(F)F.OCP(CO)CO.OCP(CO)CO.OCP(CO)CO.OCP(CO)CO.[Cu+] | CCD-18Co | clonogenic |  | 6 h, 12 days colony growth |  | colony formation | no effect |
| CC(=O)O[C@H]1C[C@@H](O)[C@H]2[C@@H]3CC[C@H]4CC(=O)C=C(CO)[C@]4(C)[C@H]3CC[C@@]21C | PMA-differentiated THP-1 | TNF-α production, ELISA |  | concentration not given, 4 h, together with: LPS 50 ng/mL |  | inhibition | 81 ± 2.5% |
| O=C(O)CCC(NP(=O)(O)OCCC[C@@H](NC(=O)CCC(NC(=O)c1ccc([18F])cc1)C(=O)O)C(=O)O)C(=O)O (stereo partly drawn) | CWR22Rv1 |  |  | 1 h |  | surface-bound fraction | 19.3 ± 1.76% |
| CC(=O)Oc1ccc(/C=C/C(=O)Nc2nc(=O)n([C@@H]3O[C@H](C)[C@@H](OC(C)=O)[C@H]3OC(C)=O)cc2F)c(OC(C)=O)c1 | BXPC-3 | cell viability, MTT |  |  | relative to: NHDF fibroblasts over BXPC-3 | selectivity index | 2.58 |
| CC12OOC(C)(OO1)C2CCC(=O)OCCNc1ccnc2cc(Cl)ccc12 (stereo not drawn) | CCRF-CEM | cell growth or viability, resazurin |  | 10 µM, 48 h |  | inhibition | 36.1% |
| O=C(O)c1ccc([PH]([Au][Cl])(c2ccccc2)c2ccccc2)cc1 | HUVEC | tube formation |  | IC10, 16 h |  | tube node disruption | 23% |
| CNC(=O)c1cc(Oc2ccc(NC(=O)c3cc(-c4ccc(OC(=O)CCC(=O)OC5OC6OC7(C)CCC8C(C)CCC(C5C)C68OO7)cc4)ccn3)cc2)ccn1 (stereo not drawn) | Huh-7 and LO2 | cell viability, MTT |  | 72 h | relative to: IC50 LO2 over IC50 Huh-7 | selectivity ratio | 3.1 |
| CC(=O)N[C@@H](CCCNC(=N)N)C(=O)N[C@@H](CCCNC(=N)N)C(=O)N[C@@H](CCCNC(=N)N)C(=O)N[C@@H](CCCNC(=N)N)C(=O)N[C@@H](CCCNC(=N)N)C(=O)N[C@@H](CCCNC(=N)N)C(=O)N[C@@H](CCCNC(=N)N)C(=O)N[C@@H](CCCNC(=N)N)C(=O)N[C@@H](CCCNC(=N)N)C(=O)N[C@@H](CCCNC(=N)N)C(=O)NCC(=O)N[C@@H](COP(=O)(O)O)C(=O)N1CCC[C@H]1C(=O)N[C@H](C(=O)N[C@@H](Cc1ccccc1)C(=O)O)[C@@H](C)O | HeLa | co-immunoprecipitation | nuclear fraction | up to 100 µM |  | BRCA1-Abraxas interaction | no effect |
| CSCC[C@H](NC(=O)[C@H](CC(C)C)NC(=O)CNC(=O)[C@H](Cc1ccccc1)NC(=O)[C@H](Cc1ccccc1)NC(=O)[C@H](CCC(N)=O)NC(=O)[C@H](CCC(N)=O)NC(=O)[C@@H]1CCCN1C(=O)[C@H](CCCCN)NC(=O)[C@@H]1CCCN1C(=O)[C@@H](N)CCCNC(=N)N)C(N)=O | rat mast cells | whole-cell patch-clamp capacitance |  | 25 µM, intracellular, 200 µM EGTA |  | onset delay of degranulation | 250 s |
| CC(C)C[C@H](NC(=O)[C@H](CCCNC(=N)N)NC(=O)CNC(=O)[C@@H](N)Cc1ccccc1)C(=O)O | HaCaT | CCK-8 |  | 100 µg/mL, 72 h, 0.4 % serum |  | viability | 121 ± 3.06% |
| C#CCCCNCCNc1ccnc2cc(Cl)ccc12 | MOLT-4 | cell growth or viability, resazurin |  | 10 µM, 48 h |  | inhibition | 0% |
| COC(=O)[C@H](CC(C)C)NC(=O)[C@@H]1CCCN1C(=O)[C@@H](NC(=O)[C@H](CCC(=O)C=[N+]=[N-])NC(=O)OCc1ccccc1)C(C)C | Q7 mouse striatal cells | MitoTracker staining |  | 50 µM, 12 and 24 h |  | mitochondrial staining | increased |
| CCCN1CCNC1=[S+][Ag-3]([O][N+](=O)[O-])([P+](c1ccccc1)(c1ccccc1)c1ccccc1)[P+](c1ccccc1)(c1ccccc1)c1ccccc1 | MG-63 osteosarcoma | MTT |  | 100 µM |  | cell killing | ≤ 91% |
| CC[C@@]12CC[C@@H]3N(C)c4ccccc4[C@@]34CCN(C[C@H]3O[C@H]31)[C@@H]24 | BV-2 | NO production |  | 50 µM, 1 h, 24 h stimulation, together with: LPS 800 ng/mL | relative to: LPS control | inhibition | 75.7 ± 1.9% |
| CC[C@H](C)[C@H](NC(C)=O)C(=O)N[C@@H](CC(N)=O)C(=O)N[C@@H](Cc1c[nH]c2ccccc12)C(=O)N[C@@H](Cc1c[nH]cn1)C(=O)NCC(=O)N[C@H](C(=O)N[C@@H](C)C(=O)N[C@@H](Cc1c[nH]cn1)C(=O)N[C@@H](CCSC)C(=O)N[C@@H](C)C(=O)N[C@@H](CCCCN)C(=O)N[C@@H](CCCCN)C(=O)N[C@@H](CC(C)C)C(=O)N[C@@H](CC(C)C)C(N)=O)[C@@H](C)CC | human erythrocytes |  |  | together with: Ni(II) 300 µM | relative to: without metal | haemolytic potency ratio | 9 fold |
| CNC(=O)c1cc(Oc2ccc(NC(=O)c3ccc(-c4ccc(COC(=O)CCC(=O)OC5OC6OC7(C)CCC8C(C)CCC(C5C)C68OO7)cc4)cn3)cc2)ccn1 (stereo not drawn) | Hep3B and LO2 | cell viability, MTT |  | 72 h | relative to: IC50 LO2 over IC50 Hep3B | selectivity ratio | > 10.1 |
| CCC(=O)CCC[C@H](C)C[C@H](NC(=O)[C@@H]1C[C@H](C)CN1C(=O)/C=C/[C@@H](C)CC)C(=O)N[C@H](C(=O)NC(C)(C)C(=O)N[C@@H](CC(C)C)C(=O)N[C@@H](CC(C)C)C(=O)NC(C)(C)C(=O)NC(C)(C)C(=O)NCCC(=O)N[C@@H](C)CN(C)C)[C@H](O)C(C)C | MDA-MB-453 | cell growth or viability, SRB |  | 48 h |  | GI50 | 0.0035 µM |
| CC[C@H](C)[C@H]1C(=O)O[C@H](C(C)C)C(=O)N(C)[C@@H]([C@@H](C)CC)C(=O)O[C@H](C(C)C)C(=O)N(C)[C@@H]([C@@H](C)CC)C(=O)O[C@H](C(C)C)C(=O)N1C | E0771 | RNA-seq |  | concentration not given | relative to: 17-AAG | shared regulated genes | 34 genes |
| CC1CCC2C(C)C(OC(=O)CCC(=O)N(CCCc3cn(-c4ccc(C#N)cc4)nn3)CCNc3ccnc4cc(Cl)ccc34)OC3OC4(C)CCC1C32OO4 (stereo not drawn) | CCRF-CEM | cell growth or viability, resazurin |  | 10 µM, 48 h |  | inhibition | 34% |
| CC[C@H](C)[C@H](NC(C)=O)C(=O)N[C@@H](CC(N)=O)C(=O)N[C@@H](Cc1c[nH]c2ccccc12)C(=O)N[C@@H](Cc1c[nH]cn1)C(=O)N[C@@H](C)C(=O)N[C@H](C(=O)N[C@@H](C)C(=O)N[C@@H](Cc1c[nH]cn1)C(=O)N[C@@H](CCSC)C(=O)N[C@@H](C)C(=O)N[C@@H](CCCCN)C(=O)N[C@@H](CCCCN)C(=O)N[C@@H](CC(C)C)C(=O)N[C@@H](CC(C)C)C(N)=O)[C@@H](C)CC | human erythrocytes | haemolysis |  | together with: Zn(II) 300 µM |  | Hill coefficient | 1 ± 0.1 |
| COc1cc(/C=C(\C#N)C(=O)Nc2nnc(C(F)(F)F)s2)ccc1OC(=O)N1CCN(C(=O)CCCC(=O)NCCCC[C@@H]2NC(=O)[C@@H](Cc3ccc(O)cc3)NC(=O)[C@H](CC(=O)O)NC(=O)CNC(=O)[C@H](CCCNC(=N)N)NC2=O)CC1 | MRC5 | cell growth or viability, MTT |  |  |  | GI50 | 49 µM |
| CC/C=C\C/C=C\C/C=C\C/C=C\C/C=C\C/C=C\CCC(=O)Nc1ccn(C2OC(CO)C(O)C2(F)F)c(=O)n1 (stereo not drawn) | IGROV-1 | NCI60 screen |  |  |  | CC50 | 55.3 µM |
| COC(=O)c1ccc(-n2cc(CCCN(CCNc3ccnc4cc(Cl)ccc34)C(=O)CCC(=O)OC3OC4OC5(C)CCC6C(C)CCC(C3C)C46OO5)nn2)cc1 (stereo not drawn) | RPMI-8226 | cell growth or viability, resazurin |  | 10 µM, 48 h |  | inhibition | 44.4% |
| CNC(=O)c1cc(Oc2ccc(NC(=O)c3cc(-c4cccc(OC(=O)CCC(=O)OC5OC6OC7(C)CCC8C(C)CCC(C5C)C68OO7)c4)ccn3)cc2)ccn1 (stereo not drawn) | Huh-7 and LO2 | cell viability, MTT |  | 72 h | relative to: IC50 LO2 over IC50 Huh-7 | selectivity ratio | 5.5 |

For quick reference, copied from above:
| Structure (SMILES) | cell line | test | test system | conditions | how to read | quantity | value |
| --- | --- | --- | --- | --- | --- | --- | --- |
| CC1CCC2C(C)C(OC(=O)CCC(=O)N(CCCc3cn(-c4ccc(C#N)cc4)nn3)CCNc3ccnc4cc(Cl)ccc34)OC3OC4(C)CCC1C32OO4 (stereo not drawn) | CCRF-CEM | cell growth or viability, resazurin |  | 10 µM, 48 h |  | inhibition | 34% |
| CCC(=O)CCC[C@H](C)C[C@H](NC(=O)[C@@H]1C[C@H](C)CN1C(=O)/C=C/[C@@H](C)CC)C(=O)N[C@H](C(=O)NC(C)(C)C(=O)N[C@@H](CC(C)C)C(=O)N[C@@H](CC(C)C)C(=O)NC(C)(C)C(=O)NC(C)(C)C(=O)NCCC(=O)N[C@@H](C)CN(C)C)[C@H](O)C(C)C | MDA-MB-453 | cell growth or viability, SRB |  | 48 h |  | GI50 | 0.0035 µM |
